Measured values of several laboratories.
Lines come from different studies, so protocols differ.

SMILES | technique | medium | tested at | with | relative to | endpoint | value
CN(C)c1cccc2c(S(=O)(=O)NCCCCCCC(=O)NO)cccc12 | fluorescence |  |  |  |  | emission wavelength | 500 nm
Nc1ncnc2c1nc(-n1nnc3c1CCC1C(CO)C1CC3)n2C1OC(CO)C(O)C1O (mixture of isomers) |  | DMSO |  |  |  | emission maximum | 376 nm
COc1ccc(/C=C/c2ccc(-c3ccc(C)cn3)nc2)cc1 |  | acetonitrile | concentration not given | Zn(ClO4)2, saturating | zinc-free ligand | emission shift on zinc binding | 4440 cm⁻¹
CN(C)c1cccc2c(S(=O)(=O)NCCCCC(=O)NO)cccc12 | fluorescence |  |  |  |  | emission wavelength | 500 nm
CCOC(=O)c1[nH]c(C)c(/C=C/C2=[N+]3C(=C(c4cc(OC)cc(OC)c4)c4c(C)c(I)c(/C=C/c5c(C)[nH]c(C(=O)OCC)c5C)n4[B-]3(F)F)C(C)=C2I)c1C |  | THF |  |  |  | emission maximum | 713 nm
COc1ccc2cc(-c3ccc(-c4ccc(C)cn4)nc3)oc2c1 |  | acetonitrile | concentration not given | Zn(ClO4)2, saturating | zinc-free ligand | emission shift on zinc binding | 4400 cm⁻¹
COc1cc(OC)cc(C2=C3C(C)=C(I)C(C)=[N+]3[B-](F)(F)n3c(/C=C/c4c[nH]c5ccc([N+](=O)[O-])cc45)c(I)c(C)c32)c1 |  | THF |  |  |  | emission maximum | 635 nm
CCCn1c(=O)c2[nH]c(-c3ccc(OCC(=O)NCCNS(=O)(=O)c4cccc5c(N(C)C)cccc45)cc3)nc2n(CCC)c1=O |  |  | 50 µM |  | HBS over methanol | emission intensity ratio | 0.26
COc1cc(OC)cc(C2=C3C(C)=C(I)C(/C=C/c4c[nH]c5ccccc45)=[N+]3[B-](F)(F)n3c(/C=C/c4c[nH]c5ccccc45)c(I)c(C)c32)c1 |  | THF |  |  |  | emission maximum | 748 nm
CCCn1c(=O)c2[nH]c(-c3ccc(OCC(=O)NCCNC(=O)CCCCCNC(=O)COc4ccc(/C=C/C5=[N+]6C(=Cc7ccc(-c8cccs8)n7[B-]6(F)F)C=C5)cc4)cc3)nc2n(CCC)c1=O |  |  | 1 µM |  | HBS over methanol | emission intensity ratio | 0.07
COc1cc(OC)cc(C2=C3C(C)=C(I)C(C)=[N+]3[B-](F)(F)n3c(/C=C/c4c[nH]c5ccccc45)c(I)c(C)c32)c1 |  | dichloromethane |  |  |  | emission maximum | 661 nm
NCCC(=O)N1Cc2ccccc2-c2c(nnn2-c2nc3c(N)ncnc3n2C2OC(CO)C(O)C2O)-c2ccccc21 (mixture of isomers) |  | DMSO |  |  |  | emission maximum | 429 nm

Some of these lines once more:
SMILES | technique | medium | tested at | with | relative to | endpoint | value
COc1cc(OC)cc(C2=C3C(C)=C(I)C(C)=[N+]3[B-](F)(F)n3c(/C=C/c4c[nH]c5ccc([N+](=O)[O-])cc45)c(I)c(C)c32)c1 |  | THF |  |  |  | emission maximum | 635 nm
COc1ccc2cc(-c3ccc(-c4ccc(C)cn4)nc3)oc2c1 |  | acetonitrile | concentration not given | Zn(ClO4)2, saturating | zinc-free ligand | emission shift on zinc binding | 4400 cm⁻¹
